Assay results of several laboratories.
Each line is one published result; not all experiments were run side by side. “And” joins repeats or separate records; there may be more than shown. ± marks the error that the study gave.

| Structure (SMILES) | tested on | test | test system | setting | scale | quantity | value |
| --- | --- | --- | --- | --- | --- | --- | --- |
| CNC(=O)c1ccc(-c2cnc3ncc(Cc4ccc5ncccc5c4)n3n2)cc1F |  | CTCAE v4.0, any causality | human cancer patients | oral, 600 mg twice daily, expansion, other tumours, RP2D |  | dry mouth incidence (all grades) | 17% |
| CN(C)CCc1c[nH]c2ccc(C[C@H]3COC(=O)N3)cc12 |  |  | EpiIntestinal microtissues | 5 µM, 2 h, pH 6.5, basolateral pH 7.4 |  | Papp apical to basolateral | 1.53 ×10⁻⁶ cm/s |
| O=C(CCCN1CC=C(n2c(=O)[nH]c3ccccc32)CC1)c1ccc(F)cc1 |  |  | male Hartley guinea pigs, anaesthetized | intravenous, 0.3 mg/kg over 10 min, after infusion |  | mean blood pressure | 26 ± 0.2 mmHg |
| C=CC(=O)N1CC2CC(n3nc(-c4ccc(C(=O)Nc5ccccn5)cc4)c4c(N)ncnc43)CC2C1 (centres unmarked) |  |  | SCID mice, plasma | oral, 15 mg/kg twice daily |  | AUC(0-last) | 13500 ng·h/mL |
| O=C1c2ccncc2C(=O)c2c1[nH]c1ccccc21 |  |  | Sprague-Dawley rat, male, plasma | intravenous, 5 mg/kg |  | plasma clearance | 39.8 ± 22.2 mL/min |
| CN(C)C(=O)c1ncccc1O |  |  |  |  |  | pKa (acidic) | 7.4 |
| COc1cc2[nH]c(C)c(-c3ccc(C(F)(F)F)cc3F)c(=O)c2cc1Cl |  |  | PAMPA | pH 7.4 |  | Papp | 688 ×10⁻⁶ cm/s |
| Cc1cc(C)cc(NC(=O)Nc2ccc(N3CCCCC3)cc2)c1 |  |  | sheep erythrocytes | 1 h, pH 7.5 |  | maximum haemolysis | 33.8% |
| Cc1ccc(C(=O)N(CCCN)C(c2nc3snc(C)c3c(=O)n2Cc2ccccc2)C(C)C)cc1 (centres unmarked) |  | hypophosphataemia grade ≥3 (CTCAE) | human patients | intravenous, 13 mg/day |  | patients with adverse event | 0% |
| O=C(O)CCC(=O)O.[2H]C([2H])([2H])Oc1cc(C)c2[nH]ccc2c1CN1CC[C@@H](C2CC2)C[C@H]1c1ccc(C(=O)O)cc1 |  | multiple ascending dose | healthy Chinese subjects | 300 mg once daily |  | subjects with dental ulcer TEAE | 25% |
| Cc1ccc2ccc(C(=O)O)c(O)c2n1 |  |  |  |  |  | pKa (basic) | < 2 |
| Cc1c2oc3c(C)ccc(C(=O)N[C@@H]4C(=O)N[C@H](C(C)C)C(=O)N5CCC[C@H]5C(=O)N(C)CC(=O)N(C)[C@@H](C(C)C)C(=O)O[C@@H]4C)c3nc-2c(C(=O)N[C@@H]2C(=O)N[C@H](C(C)C)C(=O)N3CCC[C@H]3C(=O)N(C)CC(=O)N(C)[C@@H](C(C)C)C(=O)O[C@@H]2C)c(N)c1=O |  | LC-MS | children with cancer, plasma | dose not given, 2 h |  | maximum plasma concentration | 24.8 µg/L |
| Oc1ncnc2[nH]ncc12 | Toxoplasma gondii | parasite growth | HFF, bradyzoite, alkaline-induced |  |  | EC50 | 30 µM |
| Cc1ccc(Sc2ccccc2N2CCNCC2)c(C)c1 |  | refers to: AST increased | healthy adult men | oral, 5 mg daily, 12 days |  | participants with TEAE | 16.7% |
| CN1CCN(c2cccc3c2CCN(C(=O)/C=C/c2c(-n4cnnn4)ccc(Cl)c2F)[C@@H]3C(=O)Nc2ccc(C(=O)O)cc2)C(=O)C1 |  |  | healthy human subjects | intravenous infusion, 20 mg/h, 5 days, study |  | upper respiratory infection subjects | 0% |
| COc1cc2[nH]c(C)c(-c3cncnc3)c(=O)c2cc1Cl |  |  | PAMPA | pH 7.4 |  | Papp | 11 ×10⁻⁶ cm/s |
| CCN1/C(=C/C(C)=O)Sc2ccc(F)cc21 |  |  | cynomolgus monkey | oral, 30 mg/kg, 6 h post-dose |  | mean blood pressure | 90 ± 3 mmHg |
| CCO[C@H]1CCN(Cc2c(OC)cc(C)c3[nH]ccc23)[C@H](c2ccc(C(=O)O)cc2)C1 |  |  | PNH patients, active haemolysis | oral, 200 mg, treatment |  | incidence free thyroxine increase | 0% |
| Cc1cc(C)c(CNC(=O)c2cc(Cl)c3c(c2C)O[C@@](C)([C@H]2CC[C@H](N(C)C)CC2)O3)c(=O)[nH]1 |  |  | human relapsed/refractory NHL | oral, 200 mg once daily, onset after cycle 1 day 1 |  | ALT increased grade ≥3 | 4.2% |
| CNC(=O)c1cccc(-c2ccc(O[C@H]3O[C@H](CO)[C@@H](O)[C@H](O)[C@@H]3O)c(C)c2)c1 |  |  | male Sprague-Dawley rat, plasma | intravenous, 3 mg/kg, group mean |  | C0 | 2910 ng/mL |
| Cc1cc(CN)cc(C)c1NC(=O)c1ccc(-c2cc(Cl)ccc2Cl)o1 | Toxoplasma gondii | parasite growth | HFF, bradyzoite, alkaline-induced |  |  | EC50 | 11.5 µM |
| COc1ncc(-c2nc3c(n2C(C)C)[C@H](c2ccc(Cl)cc2)N(c2cc(Cl)cn(C)c2=O)C3=O)c(OC)n1 |  |  | human patients, plasma | oral, 20 mg, low-dose arm, cycle 1 day 8 |  | median Tmax | 4 h |

| Structure (SMILES) | tested on | test | test system | setting | scale | quantity | value |
| --- | --- | --- | --- | --- | --- | --- | --- |
| CC(C)C[C@H](NC(=O)C[C@H](O)[C@H](CC(C)C)NC(=O)[C@H](Cc1c[nH]cn1)NC(=O)CNC(=O)[C@@H](NC(=O)[C@H](C)NC(=O)[C@H](Cc1c[nH]c2ccccc12)NC(=O)[C@H](CCC(N)=O)NC(=O)[C@@H](Cc1ccccc1)NC(=O)COCCOCCNC(=O)CCC(C(=O)O)N1CCN(CC(=O)O)CCN(CC(=O)O)CCN(CC(=O)O)CC1)C(C)C)C(N)=O (some centres unmarked) [lutetium-177 labelled] |  |  | BALB/c nu/nu mice, lung | intravenous, 100 pmol, 1 h, with: PA 300 µg |  | tissue uptake | 0.54 ± 0.09 %ID/g |
| COc1cc(N)c(Cl)cc1C(=O)NC1CCN(CCCOc2ccc(F)cc2)CC1OC (centres unmarked) |  |  | male Hartley guinea pigs, anaesthetized | intravenous, 1 mg/kg group, baseline before infusion |  | mean blood pressure | 39 ± 0.4 mmHg |
| N#C[C@@]12C[C@@H]1[C@@H](n1cnc3c(N[C@@H](C4CCC4)C4CC4)nc(I)nc31)[C@H](O)[C@@H]2O |  |  | Wistar rat, male, plasma | oral, 1.0 mg/kg |  | Vd | 165 L/kg |
| COc1ccc2c(c1)sc(-c1ccc(N(C)C)cc1)[n+]2C |  |  | PBS | free dye |  | brightness | 104 M⁻¹ cm⁻¹ |
| Cn1cc(-c2ccc(-c3cncc(Cl)c3N3CCC4(CCNC4=O)CC3)cc2)cn1 | COLO 205 | gene expression, microarray, refers to: NUF2 mRNA |  | concentration not given, 2 h | reference: untreated cells | log2 fold change | -1.59 |
| C=CC(=O)N(C)CCOc1c(N)ncnc1-c1cc(F)cc(NC(=O)c2ccc(C3CC3)cc2F)c1C |  |  | human, whole blood | oral, 100 mg single dose |  | AUC | 269 ng·h/mL |
| CN(CCCN1CCN(C(=O)CN2CCN(CC(=O)[O-])CCN(CC(=O)[O-])CCN(CC(=O)[O-])CC2)CC1)c1ccc2nccc(C(=O)NCC(=O)N3CC(F)(F)C[C@H]3C#N)c2c1.[68Ga+3] |  |  | mice, HT-1080.hFAP and HT-1080 wild-type xenografts, adrenal | iv, 500 pmol, 4 h post injection |  | uptake | 0.2 %IA/g |
| COc1ccc(C[C@@H](C)[C@@H](C)Cc2ccc(OC)c(OC)c2)cc1OC |  |  | beagle dog female, plasma | oral, 300 mg/kg/day, day 1 |  | Cmax | 2690 ± 1650 ng/mL |
| COc1cc2c3c(n(CCCN4CCOCC4)c(=O)c2cc1OC)-c1cc2c(cc1C3=O)OCO2 |  |  | beagle dogs, female, plasma | oral, 860 mg/m^2, gelatin capsules |  | Cmax | 483 ng/mL and 1.6 ng/mL |
| CCCCCCCOc1ccc(CCC(N)(CO)CO)cc1C(F)(F)F.Cl |  |  | healthy men, plasma | oral, 0.5 mg, day 1 |  | AUC(0-tau) | 4.36 ng·h/mL |
| C=CCN1CC(=O)N2[C@@H](Cc3ccc(O)cc3F)C(=O)N(Cc3cccc(N4CC(N5CCN(CC)CC5)C4)n3)C[C@@H]2N1C(=O)NCc1ccccc1 |  | refers to: Malaise | advanced solid tumour patients | all doses, expansion part, grade ≥3 |  | treatment-related adverse events | 0% |
| COc1nc(-c2cc(C)c(N[C@@H](C)c3cc(F)cc(F)c3)nn2)ccc1-n1cnc(C)c1 |  |  | rat Sprague-Dawley male, brain | oral, 5 mg/kg daily for 9 days, 4 h after dose |  | concentration | 550 ng/g |
| CCn1cc(C(=O)N2CCOCC2)c(=O)c2cc(NC3Cc4ccccc4C3)cnc21 |  |  | human, fasted | oral suspension, 5 mg single dose, arithmetic mean |  | AUC(0-inf) | 189 ng·h/mL |
| CNCCOC12CC3(C)CC(C)(CC(Cn4ncc(-c5ccc(N6CCc7cccc(C(=O)Nc8nc9ccccc9s8)c7C6)nc5C(=O)O)c4C)(C3)C1)C2 |  |  | beagle dog, male, anaesthetised | intravenous bolus, 0.03 mg/kg, 5 min | reference: baseline | mean arterial pressure change | -2% |
| CCc1cc(C(=O)NC)c2nccc(N3CCc4c(cc(Cn5ccnc5)cc4-c4cn(C)nc4C(F)(F)F)C3=O)c2c1 |  |  | Sprague Dawley rat | oral, 100 mg/kg once daily, 7 days | reference: vehicle | change in gastrocnemius weight | -0.14% |
| CN(C)C(=N)N=C(N)N |  | refers to: respiratory, thoracic, mediastinal disorders | healthy men | oral, dose not given, 8 days, treatment-emergent, crossover trial |  | subjects with adverse event | 4.5% |
| O=C(Nc1nc2cccc(-c3ccc(CN4CCS(=O)(=O)CC4)cc3)n2n1)C1CC1 |  | refers to: arthropod sting allergy | rheumatoid arthritis patients | oral, 200 mg once daily, 4 weeks, any relatedness |  | treatment-emergent adverse events | 0% |
| CC1(C)S[C@@H]2[C@H](NC(=O)[C@H](N)c3ccc(O)cc3)C(=O)N2[C@H]1C(=O)O |  |  | male Hartley guinea pigs, anaesthetized | intravenous, 20 mg/kg over 10 min, after infusion |  | mean blood pressure | 36 ± 0.1 mmHg |
| CNC(=O)c1ccc(-c2cnc3ncc(Cc4ccc5ncccc5c4)n3n2)cc1F |  |  | Japanese patients | oral, 400 mg, any grade |  | Vomiting treatment discontinuation | 1% |
| C[C@@]1(c2cc(NC(=O)c3ccc(C#N)cn3)ccc2F)C=CSC(N)=N1 |  |  | elderly humans, both sexes, plasma | oral, 1 mg single dose |  | dose-normalised AUC(0-last) | 54.7 ng·h/mL |
| C=CC(=O)Nc1cc(Nc2nccc(-c3cn(C)c4ccccc34)n2)c(OC)cc1N(C)CCN(C)C |  |  | human patients | oral, cycle 3 day 1, safety run-in, mean, with: pemetrexed + carboplatin |  | CLss/F | 17.1 L/h |
| C=CCn1c(=O)c2cnc(Nc3ccc(N4CCN(C)CC4)cc3)nc2n1-c1cccc(C(C)(C)O)n1 |  |  | human | oral, 300 mg once daily, monotherapy lead-in, -5 days | geometric mean | AUC(0-10) | 9.15 µM·h |

For quick reference, copied from above:
| Structure (SMILES) | tested on | test | test system | setting | scale | quantity | value |
| --- | --- | --- | --- | --- | --- | --- | --- |
| C=CC(=O)N1CC2CC(n3nc(-c4ccc(C(=O)Nc5ccccn5)cc4)c4c(N)ncnc43)CC2C1 (centres unmarked) |  |  | SCID mice, plasma | oral, 15 mg/kg twice daily |  | AUC(0-last) | 13500 ng·h/mL |
| O=C1c2ccncc2C(=O)c2c1[nH]c1ccccc21 |  |  | Sprague-Dawley rat, male, plasma | intravenous, 5 mg/kg |  | plasma clearance | 39.8 ± 22.2 mL/min |
| CN(C)C(=O)c1ncccc1O |  |  |  |  |  | pKa (acidic) | 7.4 |
| COc1cc2[nH]c(C)c(-c3ccc(C(F)(F)F)cc3F)c(=O)c2cc1Cl |  |  | PAMPA | pH 7.4 |  | Papp | 688 ×10⁻⁶ cm/s |
| Cc1cc(C)cc(NC(=O)Nc2ccc(N3CCCCC3)cc2)c1 |  |  | sheep erythrocytes | 1 h, pH 7.5 |  | maximum haemolysis | 33.8% |
